Measurements gathered from unrelated publications.
Protocols differ between the studies behind these lines. Numbers after ± are the reported error.
UniProt P48047, sequence (whole entry, looked up): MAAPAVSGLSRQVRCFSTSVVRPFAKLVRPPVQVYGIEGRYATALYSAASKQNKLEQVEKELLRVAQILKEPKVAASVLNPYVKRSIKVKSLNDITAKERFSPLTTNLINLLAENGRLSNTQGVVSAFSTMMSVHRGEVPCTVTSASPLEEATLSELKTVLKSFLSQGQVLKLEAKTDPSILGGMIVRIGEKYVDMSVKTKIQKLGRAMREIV
UniProt P49238, sequence (whole entry, looked up): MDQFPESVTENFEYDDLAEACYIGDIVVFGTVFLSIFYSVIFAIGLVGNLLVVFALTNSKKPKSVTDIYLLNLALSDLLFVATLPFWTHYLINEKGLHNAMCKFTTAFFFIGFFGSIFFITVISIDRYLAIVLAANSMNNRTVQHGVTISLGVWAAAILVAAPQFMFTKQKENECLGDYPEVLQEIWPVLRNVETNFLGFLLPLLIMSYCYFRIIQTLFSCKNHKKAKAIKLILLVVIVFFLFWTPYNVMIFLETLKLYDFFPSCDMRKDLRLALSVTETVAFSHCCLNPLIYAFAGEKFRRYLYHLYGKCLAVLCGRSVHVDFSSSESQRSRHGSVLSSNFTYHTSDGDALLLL

SMILES	target or system	assay	system	conditions	how to read	quantity	value
COc1cc(Nc2ncc(F)c(Nc3ccc4c(n3)NC(=O)C(C)(C)O4)n2)cc(OC)c1OC	CX3CR1 (Homo sapiens, UniProt P49238)					IC50	> 10 µM
COc1cc(CCC[P+](c2ccccc2)(c2ccccc2)c2ccccc2)c(OC)c2c1OCO2.[I-]	MOLT-4	SRB				TGI	-4.72 log M
Oc1ccc(-c2ccc(Cl)cc2)c(Cl)c1	gap junction, rat	gap junctional communication, scrape loading dye transfer	WB-F344 rat liver epithelial	1 h		IC25	15 µM
O=C1Nc2ccc3ncsc3c2/C1=C/c1cnc[nH]1	human TRPM8		HEK293	5 µM, 24 h	baseline: control	remaining activity	100 ± 9.09%
Clc1ccc(-c2ccc(Cl)cc2Cl)cc1	gap junction, rat	gap junctional communication, scrape loading dye transfer	WB-F344 rat liver epithelial	1 h		IC25	14 µM
CC[C@H](C)[C@@H]1NC(=O)[C@@H]2CCCN2C(=O)[C@H](CC(C)C)NC(=O)[C@H](CC(C)C)NC(=O)CNC(=O)[C@@H](NC(=O)[C@@H](NC(=O)[C@H](CC(=O)O)NC(=O)CNC(=O)[C@@H](NC(=O)[C@H](C)NC(=O)CNC(=O)[C@H](CCCCN)NC(=O)[C@H](CC(C)C)NC(=O)[C@H](CC(C)C)NC(=O)[C@H](CCCCN)NC(=O)CNC(=O)[C@@H](NC(=O)[C@@H](N)CC(C)C)C(C)C)C(C)C)C(C)C)CSSC[C@@H](C(=O)O)NC1=O		RNA-seq, measured: Rgs18	mouse, traumatic brain injury model, frontal cortex and hippocampus	dose not given	baseline: TBI alone	log2 fold change	-4.61
C[C@H]1CN(c2n[nH]c3nc(N[C@H]4CC[C@H](NS(=O)(=O)CCC(F)(F)F)CC4)ncc23)CCO1	ATP synthase peripheral stalk subunit OSCP, mitochondrial (Homo sapiens, UniProt P48047)	Kinobeads competition, measured: ATP5O		0.032 µM, unit not given	baseline: vehicle	remaining binding	1.09
CO[C@H]1C[C@@H]2CC[C@@H](C)[C@@](O)(O2)C(=O)C(=O)N2CCCC[C@H]2C(=O)O[C@H]([C@H](C)C[C@@H]2CC[C@@H](OC(=O)NCCOCCOCCOCCOCCOCCOCCOCCOCCC(=O)N3CCc4cc(Cn5nc(-c6ccc7oc(N)nc7c6)c6c(N)ncnc65)ccc4C3)[C@H](OC)C2)C[C@@H](O)[C@H](C)/C=C(\C)[C@@H](O)[C@@H](OC)C(=O)[C@H](C)C[C@H](C)/C=C/C=C/C=C/1C		dose-escalation trial	patients with advanced solid tumours	intravenous, 1.6 mg/3 mg weekly, any grade		gastric haemorrhage leading to dose reduction	0%
CCOP(=O)(OCC)Oc1ccc([N+](=O)[O-])cc1	carboxylesterase (mouse)		PON1 knockout mouse, liver	dermal, 0.35 mg/kg, 4 h		inhibition	4%
C/C=C1\C(=O)C[C@H]2[C@@H]3CCC4=CC(=O)CC[C@]4(C)[C@H]3CC[C@]12C	human FXR	reporter gene	HEK293 FXR-bla cells	concentration not given		activity	inactive
Oc1ccc(-c2cc(Cl)ccc2Cl)c(Cl)c1	gap junction, rat	gap junctional communication, scrape loading dye transfer	WB-F344 rat liver epithelial	1 h		IC50	11 µM
C[C@@H](O)[C@@H](CO)NC(=O)[C@@H](CCCNC(=N)N)NC(=O)[C@@H]1CCCN1C(=O)[C@@H]1CSSC[C@H](NC(=O)[C@H](Cc2ccccc2)NC(=O)CN2CCN(CC(=O)O)CCN(CC(=O)O)CCN(CC(=O)O)CC2)C(=O)N[C@@H](Cc2ccc(O)cc2)C(=O)N[C@@H](Cc2ccccc2)C(=O)N[C@@H](CCC(N)=O)C(=O)N[C@@H](CC(N)=O)C(=O)N1 [gallium-68 labelled]			Wistar rat, healthy, sublingual gland	intravenous, 8 MBq, 60 min		tissue uptake	0.15 %ID/g
Clc1cccc(-c2cccc(Cl)c2)c1	gap junction, rat	gap junctional communication, scrape loading dye transfer	WB-F344 rat liver epithelial	1 h		IC50	27 µM
C#Cc1nc(C(=O)N2CCC(NC(=O)c3cnc(-c4ccccc4)s3)(c3nc4ccccc4n3C)CC2)cs1	STING (mouse)	inhibitor, RT-qPCR	iBMDMs	concentration not given, 2 h, with: 500 nM diABZI		IL6 mRNA level	inhibited
c1ccc(C(NCCNC(c2ccccc2)c2ccccc2)c2ccccc2)cc1	GABAA chloride channel, rat	binding		10 µM, Eurofins selectivity panel, with: TBOB		inhibition	37%
COc1ncccc1-c1cnn2ccc(N3CCN(C(=O)OC(C)C)CC3)nc12	L-type calcium channel	inhibitor				IC50	12 µM
COC(=O)[C@]1(O)C[C@@H]2O[C@@]1(C)n1c3ccccc3c3c4c(c5c6ccccc6n2c5c31)C(=O)NC4	human TRPM8		HEK293	5 µM, 24 h	baseline: control	remaining activity	80.8 ± 7.22%
Cn1cccc1-c1cccnc1	sigma receptor 2	radioligand binding		50 µM		inhibition	4.75%
Cc1c(COC(=O)[C@@H]2[C@H](/C=C(\Cl)C(F)(F)F)C2(C)C)cccc1-c1ccccc1 (racemic)	human FXRα-RXRα	protein-protein interaction, antagonist, mammalian two-hybrid	COS-7 cells	concentration not given, PGC1α co-transfected, with: GW4064	baseline: GW4064 alone	relative interaction	187%
COc1cc(C(=O)N2CC[C@@H](O)[C@@H](N)C2)cc2nc(-c3cc4ccccc4n3CC3CC3)n(C)c12	PAD4	immunoblot	human neutrophils	10 µM, with: A23187 or Staphylococcus aureus stimulation		protein citrullination	inhibited
CCC(C)(C)c1ccc(O)cc1	HBV core protein Cp149 dimer	solution NMR		4 molar equivalents, pH 7.5, 295 K, average over eight residues	baseline: apo Cp149 dimer	average chemical shift perturbation	0.046 ppm

SMILES	target or system	assay	system	conditions	how to read	quantity	value
C[C@H](CCCC(C)(C)O)[C@H]1CC[C@H]2[C@@H]3CC=C4C[C@@H](O)CC[C@]4(C)[C@H]3CC[C@]12C	NMDA receptor (rat)	NMDA-evoked peak current, potentiator, whole-cell patch clamp	cultured hippocampal neurons	1 µM, with: NMDA 10 µM		potentiation	17.8 ± 4.7%
Clc1ccc(-c2ccccc2Cl)cc1	gap junction, rat	gap junctional communication, scrape loading dye transfer	WB-F344 rat liver epithelial	1 h		IC25	17 µM
CCC(C)Nc1c([N+](=O)[O-])cc(C(C)(C)C)cc1[N+](=O)[O-] (centres unmarked)	anti-cpd monoclonal antibody, mouse	indirect competitive ELISA		concentration not given	baseline: target IC50 over cpd IC50	cross-reactivity	100%
O=c1[nH]c2ccccc2n1C1CCN(Cc2ccc(-c3[nH]c4cc5ncnc5cc4nc3-c3ccccc3)cc2)CC1	human TRPM8		HEK293	5 µM, 24 h	baseline: control	remaining activity	95.9 ± 8.79%
O=C1c2ccccc2C(=O)C1c1ccccc1	human FXR	reporter gene	HEK293 FXR-bla cells	concentration not given		activity	inactive
COc1cc2c(Oc3ccc4[nH]c(C)cc4c3F)ccnc2cc1OCC1(N)CC1			paediatric recurrent refractory sarcoma	8 mg		grade 3 sinus tachycardia	0%
O=C(Nc1cccnn1)N1CCN([C@@H]2CCOc3cc(C(F)(F)F)ccc32)CC1	neuronal nicotinic receptor alpha4beta2	binding		20 µM, alpha-bungarotoxin-insensitive		inhibition	8%
Clc1ccccc1-c1ccccc1Cl	gap junction, rat	gap junctional communication, scrape loading dye transfer	WB-F344 rat liver epithelial	1 h		IC50	23 µM
N[C@@H](Cc1c[nH]c2ccccc12)C(=O)O	tryptophan indole-lyase Escherichia coli	substrate, biochemical				kcat/Km	7000 M⁻¹ s⁻¹
COc1ccc(N2C(=O)N(c3c(C)cccc3Cl)Cc3cnc(Nc4ccc(C5CCN(C)CC5)cc4OC)nc32)nc1	NDRG1 kinase, human	kinase activity		0.5 µM		inhibition	2.44%
Oc1cc(Cl)cc(-c2cccc(Cl)c2)c1	gap junction, rat	gap junctional communication, scrape loading dye transfer	WB-F344 rat liver epithelial	1 h		IC25	25 µM
N[C@@H](CCC(=O)O)C(=O)O	rat kainate glutamate receptor	radioligand binding				IC50	0.16 µM
Clc1ccc(Cl)c(-c2ccccc2Cl)c1	gap junction, rat	gap junctional communication, scrape loading dye transfer	WB-F344 rat liver epithelial	1 h		IC25	8 µM
CC[C@H](C)[C@H](NC(=O)[C@H](Cc1ccccc1)NC(=O)[C@H](CCC(=O)O)NC(=O)[C@H](CCCNC(=N)N)NC(=O)[C@H](C)NC(=O)[C@H](C)NC(=O)[C@H](CCC(N)=O)NC(=O)[C@H](CCC(=O)O)NC(=O)[C@H](CCC(=O)O)NC(=O)[C@H](CC(C)C)NC(=O)[C@H](Cc1ccc(O)cc1)NC(=O)[C@H](CO)NC(=O)[C@H](CO)NC(=O)[C@@H](NC(=O)[C@H](CC(=O)O)NC(=O)[C@H](CO)NC(=O)[C@@H](NC(=O)[C@H](Cc1ccccc1)NC(=O)[C@@H](NC(=O)CNC(=O)[C@H](CCC(=O)O)NC(=O)[C@H](C)NC(=O)CCc1c[nH]cn1)[C@@H](C)O)[C@@H](C)O)C(C)C)C(=O)N[C@@H](C)C(=O)N[C@@H](Cc1c[nH]c2ccccc12)C(=O)N[C@@H](CC(C)C)C(=O)N[C@H](C(=O)N[C@@H](CCCNC(=N)N)C(=O)NCC(=O)N[C@@H](CCCNC(=N)N)C(=O)N[C@@H](CCCCNC(=O)COCCOCCNC(=O)COCCOCCNC(=O)CC[C@H](NC(=O)CCCCCCCCCCCCCCCCC(=O)O)C(=O)O)C(=O)NCC(=O)NCC(=O)N[C@@H](CO)C(=O)N[C@@H](CCCCNc1c(NCCCCCN(O)C(=O)CCC(=O)NCCCCCN(O)C(=O)CCC(=O)NCCCCCN(O)C(C)=O)c(=O)c1=O)C(=O)O)C(C)C [zirconium-89 labelled]			rat, intestine	sc, 3 nmol/kg, 72 h, ex vivo		tissue uptake	0.1 %ID/g
Cc1ccccc1OP(=O)(Oc1ccccc1C)Oc1ccccc1C	carboxylesterase (mouse)	inhibitor	PON1+/+ mice, liver	dermal, 10 mg/kg, 24 h		carboxylesterase inhibition	inhibited
O=C1c2ccccc2-[n+]2ccc3c([nH]c4ccccc43)c21	human TRPM8		HEK293	5 µM, 24 h	baseline: control	remaining activity	96.1 ± 3.2%
CC(C)CC(=O)OC[C@H]1O[C@@](C#N)(c2ccc3c(N)ncnn23)[C@H](O)[C@@H]1O	NMDA receptor Agonism site (rat)			20 µM		inhibition	3%
CO[C@H]1C[C@H](O[C@@H]2/C(C)=C/C[C@@H]3C[C@@H](C[C@]4(CC[C@H](C)[C@@H](C5CCCCC5)O4)O3)OC(=O)[C@@H]3C=C(C)/C(=N/O)[C@H]4OC/C(=C\C=C\[C@@H]2C)[C@]43O)O[C@@H](C)[C@@H]1O	human FXR		HEK293 cells			IC50	17.9 ± 0.6 µM
CCCCCCO	Aedes aegypti OR15/Orco	agonist, two-electrode voltage clamp	Xenopus oocytes			EC50	1.07 µM
C[C@]1(CO)Cc2ncn(-c3ccc(C#N)c(Cl)c3)c2C(=O)O1	aldosterone synthase	inhibitor	human, plasma	80 mg, days 14 and 15, European multiple ascending dose	baseline: day 1	plasma corticosterone	increased

Some of these lines once more:
SMILES	target or system	assay	system	conditions	how to read	quantity	value
Clc1ccc(Cl)c(-c2ccccc2Cl)c1	gap junction, rat	gap junctional communication, scrape loading dye transfer	WB-F344 rat liver epithelial	1 h		IC25	8 µM
c1ccc(C(NCCNC(c2ccccc2)c2ccccc2)c2ccccc2)cc1	GABAA chloride channel, rat	binding		10 µM, Eurofins selectivity panel, with: TBOB		inhibition	37%
COC(=O)[C@]1(O)C[C@@H]2O[C@@]1(C)n1c3ccccc3c3c4c(c5c6ccccc6n2c5c31)C(=O)NC4	human TRPM8		HEK293	5 µM, 24 h	baseline: control	remaining activity	80.8 ± 7.22%
N[C@@H](CCC(=O)O)C(=O)O	rat kainate glutamate receptor	radioligand binding				IC50	0.16 µM
C[C@@H](O)[C@@H](CO)NC(=O)[C@@H](CCCNC(=N)N)NC(=O)[C@@H]1CCCN1C(=O)[C@@H]1CSSC[C@H](NC(=O)[C@H](Cc2ccccc2)NC(=O)CN2CCN(CC(=O)O)CCN(CC(=O)O)CCN(CC(=O)O)CC2)C(=O)N[C@@H](Cc2ccc(O)cc2)C(=O)N[C@@H](Cc2ccccc2)C(=O)N[C@@H](CCC(N)=O)C(=O)N[C@@H](CC(N)=O)C(=O)N1 [gallium-68 labelled]			Wistar rat, healthy, sublingual gland	intravenous, 8 MBq, 60 min		tissue uptake	0.15 %ID/g
